Results from different studies.
Protocols differ between the studies behind these lines. Numbers after ± are the reported error.

SMILES | cell line | test | setting | IC50 [nM]
CCC(=CCc1c(O)cc2c(c1O)C(=O)CC(c1ccc(OC)c(O)c1)O2)CC (stereo not shown) | normal pig cell line | cytotoxicity, MTT | 48 h | 99800 ± 2700
O=C(NCc1cc(F)cc(F)c1)[C@@]1(O)CCN(c2ccc3[nH]ccc3c2)C1=O | CNS PDX-derived tumour cells | colony formation, soft agar clonogenic | 8-10 days | 100
O=C(O)C(CO)NCc1cc(Cl)c(OCc2cccc(-c3ccccc3)c2Br)cc1OCc1cccnc1 (stereo not shown) | HCT-8 | cell growth or viability, MTT |  | > 10000
O=C(Nc1ccc(C(=O)Nc2ccc3[nH]nc(-c4ccccc4)c3c2)c(C(F)(F)F)c1)Nc1cc(C(F)(F)F)ccc1F | KM12 | cell growth or viability, ATP luminescence | 72 h | > 50000
CC(C)=CC1OC(C)(C)C2C=C3C(=O)C(Cl)=CC(O)C3C3C(O)C4OC4C(=O)C132 (stereo not shown) | NALM-6 | cell growth or viability, MTS |  | 1720
O=C(O)c1ccc(-c2ccc(O)cc2)c2c1C=C(c1ccc(O)cc1)OC2(c1ccc(O)cc1)c1ccc(O)cc1 | MGC-803 | cell growth or viability, MTT | 48 h | 8730
Cc1ccc([N+](=O)[O-])cc1S(=O)(=O)N(C)/N=C/c1cnc2ccc(Br)cn12 | KM12 | cell viability, MTS |  | 6
NC(=S)NN=Cc1ccc([N+](=O)[O-])o1 | CAKI-1 | cell growth or viability, resazurin |  | 21700
CCC(=CCc1c(O)cc2c(c1O)C(=O)CC(c1cccc(O)c1)O2)CC (stereo not shown) | normal pig cell line | cytotoxicity, MTT | 48 h | > 120000
CC(=O)Oc1ccccc1C(=O)[O][Pt]([NH2])([NH2])([Cl])([Cl])[O]C(C)=O | C13* cisplatin-resistant ovarian | cytotoxicity, MTT | 72 h | 710 ± 100
Cc1cc(Cl)cc(-c2ccnc3cc(CN4C(=O)C5C(C4=O)C5(C)C)sc23)c1C[C@@H]1CNCCO1 (stereo partly shown) | Capan-1 resistant pool R(mix) | cell viability, SRB | 5 days | 2540 ± 490
CCn1nc(Cl)c2c1-c1cnc(N)c(c1)O[C@H](C)c1cc(F)ccc1-c1nn(C)cc1C2 | Aska-SS (ALK exon 2-17 deletion) | cell viability |  | 6.96
COC(=O)N1c2ccc3c(nc(Cc4ccccc4)n3[C@@H]3CCC[C@@H](C(=O)O)C3)c2CC[C@@H]1C | MDA-MB-436 | cell proliferation, CellTiter-Glo, geometric mean | 240 h | 2690
C[C@H](c1ccccc1)N1C(=O)C2=Nc3cc([N+](=O)[O-])ccc3CN2C1=S | healthy human PBMCs | cell viability, resazurin |  | 2500 ± 800
Cc1cc(NC(=O)Nc2cc(C(F)(F)F)ccc2F)ccc1C(=O)Nc1ccc2[nH]ncc2c1 | KM12 | cell growth or viability, ATP luminescence | 72 h | > 50000
C=CC(=O)N1CC2C(=O)N(CCN(C)C)c3c(c4cc(Cl)c(-c5c(O)cccc5F)nc4n(-c4c(C)ccnc4C(C)C)c3=O)N2CC1C (stereo not shown) | SW1573 | cell growth or viability |  | > 10000
CNS(=O)(=O)Nc1nccc(Cc2c(C)c3ccc(Oc4ncccc4F)cc3oc2=O)c1F | AU565 | cell viability | 7 days | > 1000

SMILES | cell line | test | setting | IC50 [nM]
Cc1cnc2nc1Nc1cc(F)cc(c1)COC/C=C/COCc1cc(ccc1OCCN1CCCC1)N2 | SET-2 | cell growth or viability, CCK-8 |  | 8060
O=C(Nc1cc(C(F)(F)F)ccc1F)Nc1ccc(C(=O)Nc2ccc3[nH]ncc3c2)cc1C(F)(F)F | KM12 | cell growth or viability, ATP luminescence | 72 h | 24700
O=C1C2=Nc3ccccc3CN2C(=S)N1c1ccc([N+](=O)[O-])cc1 | healthy human PBMCs | cell viability, resazurin |  | 19800 ± 4800
Cn1ncc(-c2ccc3c(=O)[nH]nc(CN)c3c2)c1-c1c(F)c(Cl)cc(OC2CC2)c1C#N | Lu-99/Luc | cell viability, inhibitor, luciferase | 120 h | 65
C[C@H](c1ccccc1)N1C(=O)C2=Nc3ccc(F)cc3CN2C1=S | healthy human PBMCs | cell viability, resazurin |  | 1500 ± 20
Cc1cnc2nc1Nc1cccc(c1)COCc1cc(ccc1OCCN1CCOCC1)N2 | SET-2 | cell growth or viability, CCK-8 |  | 16100
C=CC(=O)N1C[C@H](C)N(c2nc(OC[C@@]34CCCN3C[C@H](F)C4)nc3c(F)c(-c4ccc(F)c5sc(N)c(C#N)c45)c(C(F)(F)F)cc23)C[C@H]1C | Ba/F3 expressing KRAS G12C/G13D | cell viability | 72 h | 5.3
Cc1ccc2c(c1C#Cc1ccc(O)cc1)C(c1ccc(O)cc1)(c1ccc(O)cc1)c1cc(O)ccc1-2 | MGC-803 | cell growth or viability, MTT | 48 h | 10000
C=CC(=O)N1CCCC(n2c(=O)c3ncccc3n(Cc3ccc(Oc4ccccc4)cc3)c2=O)C1 (stereo not shown) | KARPAS-422 | cell growth or viability, MTT | 72 h | 1500
C[C@@H](c1cccc2ccccc12)N1C(=O)C2=Nc3ccccc3CN2C1=S | healthy human PBMCs | cell viability, resazurin |  | 2700 ± 1300
CCC(=CCc1c(O)cc2c(c1O)C(=O)CC(c1cc(O)cc(OC)c1)O2)CC (stereo not shown) | normal pig cell line | cytotoxicity, MTT | 48 h | 18100 ± 2700
CCNC(NN=Cc1ccc([N+](=O)[O-])o1)=[S+][Au-][Cl] | CAKI-1 | cell growth or viability, resazurin |  | 21400
CCOc1cncc(-c2ccc(NC(=O)C3(c4ccnc(NS(=O)(=O)C5CC5)n4)CCOCC3)nc2)n1 | SCLC-21H | cell growth or viability, ATP luminescence | 72 h | 10000
NC(=O)c1ccc(-c2ccccc2Cl)c2c3c([nH]c12)CCC(N)C3 (stereo not shown) | NCI-H446 | cell growth or viability | 96 h | 37.5
C[C@H]1CN(C2COC2)CCN1c1ccc(Nc2cc(-c3ccnc(N4CCn5c(cc6c5CC(C)(C)C6)C4=O)c3CO)cn(C)c2=O)nc1 | TMD8, parental | cell viability, CellTiter-Glo | 4 days | 14
O=C(Nc1ccc(C(=O)Nc2ccc3[nH]ncc3c2)c(Br)c1)Nc1cc(C(F)(F)F)ccc1F | KM12 | cell growth or viability, ATP luminescence | 72 h | > 50000
CC(C)c1ccc(N(C)c2ccc3c(c2)OCC[C@H]3CNc2cnccc2C(=O)O)cc1 | PLC-PRF-5 | cell growth or viability, ATP luminescence | 7 days | 28
